Results collected from several papers.
± marks the error that the study gave.
Trypanothione synthetase: Trypanothione synthetase (Trypanosoma brucei, UniProt Q586P2)
Sequence of UniProt O00763 (whole entry, looked up): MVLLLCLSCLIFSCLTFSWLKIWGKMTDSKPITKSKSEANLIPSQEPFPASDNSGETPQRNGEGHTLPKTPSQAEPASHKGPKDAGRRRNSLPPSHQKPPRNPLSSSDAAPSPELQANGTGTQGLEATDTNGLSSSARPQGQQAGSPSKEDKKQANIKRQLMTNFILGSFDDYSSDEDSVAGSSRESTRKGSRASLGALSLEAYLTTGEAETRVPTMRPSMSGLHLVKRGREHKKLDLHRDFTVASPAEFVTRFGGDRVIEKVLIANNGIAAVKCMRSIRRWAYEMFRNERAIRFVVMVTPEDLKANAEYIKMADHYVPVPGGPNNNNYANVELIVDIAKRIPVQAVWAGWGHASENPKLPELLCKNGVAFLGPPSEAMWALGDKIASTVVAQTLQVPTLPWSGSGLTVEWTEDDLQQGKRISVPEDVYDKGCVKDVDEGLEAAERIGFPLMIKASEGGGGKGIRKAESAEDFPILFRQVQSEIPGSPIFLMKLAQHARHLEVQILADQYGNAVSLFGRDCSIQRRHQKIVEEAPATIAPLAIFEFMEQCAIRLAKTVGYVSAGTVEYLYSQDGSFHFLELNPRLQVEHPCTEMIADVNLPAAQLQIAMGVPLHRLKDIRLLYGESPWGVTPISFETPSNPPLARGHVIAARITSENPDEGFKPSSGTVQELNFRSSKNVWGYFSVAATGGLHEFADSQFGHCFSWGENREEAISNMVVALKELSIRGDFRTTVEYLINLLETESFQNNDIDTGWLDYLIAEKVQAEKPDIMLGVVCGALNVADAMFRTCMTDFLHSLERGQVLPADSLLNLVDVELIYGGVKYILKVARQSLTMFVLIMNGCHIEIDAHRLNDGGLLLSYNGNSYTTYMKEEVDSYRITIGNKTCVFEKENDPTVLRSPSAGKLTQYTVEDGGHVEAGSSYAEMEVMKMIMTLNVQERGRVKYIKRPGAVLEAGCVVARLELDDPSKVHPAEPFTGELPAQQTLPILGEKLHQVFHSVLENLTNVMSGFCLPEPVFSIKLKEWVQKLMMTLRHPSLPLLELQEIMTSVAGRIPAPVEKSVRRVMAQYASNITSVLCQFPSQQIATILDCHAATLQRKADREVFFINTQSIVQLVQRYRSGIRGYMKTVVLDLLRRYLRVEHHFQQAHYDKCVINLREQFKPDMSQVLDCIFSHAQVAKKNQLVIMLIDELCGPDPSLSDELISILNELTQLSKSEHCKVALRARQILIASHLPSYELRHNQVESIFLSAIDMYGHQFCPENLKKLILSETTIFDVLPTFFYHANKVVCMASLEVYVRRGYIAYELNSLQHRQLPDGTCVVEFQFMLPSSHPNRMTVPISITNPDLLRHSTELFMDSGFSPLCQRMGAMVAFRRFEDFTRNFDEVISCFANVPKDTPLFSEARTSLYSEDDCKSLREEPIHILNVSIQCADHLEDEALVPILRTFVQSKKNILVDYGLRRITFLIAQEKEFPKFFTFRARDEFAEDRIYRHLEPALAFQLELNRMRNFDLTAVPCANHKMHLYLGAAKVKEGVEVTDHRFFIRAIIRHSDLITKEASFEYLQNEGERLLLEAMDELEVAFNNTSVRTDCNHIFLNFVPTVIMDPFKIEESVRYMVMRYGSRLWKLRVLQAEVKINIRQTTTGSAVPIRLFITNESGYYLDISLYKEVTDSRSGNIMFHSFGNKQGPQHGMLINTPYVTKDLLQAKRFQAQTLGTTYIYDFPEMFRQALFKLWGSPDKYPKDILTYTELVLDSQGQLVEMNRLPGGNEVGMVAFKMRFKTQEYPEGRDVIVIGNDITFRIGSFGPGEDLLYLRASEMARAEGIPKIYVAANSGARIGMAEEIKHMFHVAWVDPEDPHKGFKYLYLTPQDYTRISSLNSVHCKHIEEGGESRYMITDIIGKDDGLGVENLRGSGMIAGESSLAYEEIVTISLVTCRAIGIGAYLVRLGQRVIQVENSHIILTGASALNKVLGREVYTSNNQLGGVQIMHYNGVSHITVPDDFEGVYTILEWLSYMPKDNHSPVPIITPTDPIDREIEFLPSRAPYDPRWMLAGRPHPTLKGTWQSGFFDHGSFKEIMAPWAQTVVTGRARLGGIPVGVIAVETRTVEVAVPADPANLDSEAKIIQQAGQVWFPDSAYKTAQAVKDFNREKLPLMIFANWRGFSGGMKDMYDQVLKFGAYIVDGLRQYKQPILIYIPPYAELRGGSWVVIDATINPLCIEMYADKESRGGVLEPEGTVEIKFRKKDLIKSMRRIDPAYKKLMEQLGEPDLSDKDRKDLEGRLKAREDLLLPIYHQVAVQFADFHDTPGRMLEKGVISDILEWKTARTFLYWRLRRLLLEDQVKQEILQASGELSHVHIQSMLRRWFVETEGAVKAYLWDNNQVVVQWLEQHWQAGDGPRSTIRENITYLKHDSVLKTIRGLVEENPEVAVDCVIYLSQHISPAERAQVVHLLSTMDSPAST
Sequence of UniProt Q14790 (whole entry, looked up): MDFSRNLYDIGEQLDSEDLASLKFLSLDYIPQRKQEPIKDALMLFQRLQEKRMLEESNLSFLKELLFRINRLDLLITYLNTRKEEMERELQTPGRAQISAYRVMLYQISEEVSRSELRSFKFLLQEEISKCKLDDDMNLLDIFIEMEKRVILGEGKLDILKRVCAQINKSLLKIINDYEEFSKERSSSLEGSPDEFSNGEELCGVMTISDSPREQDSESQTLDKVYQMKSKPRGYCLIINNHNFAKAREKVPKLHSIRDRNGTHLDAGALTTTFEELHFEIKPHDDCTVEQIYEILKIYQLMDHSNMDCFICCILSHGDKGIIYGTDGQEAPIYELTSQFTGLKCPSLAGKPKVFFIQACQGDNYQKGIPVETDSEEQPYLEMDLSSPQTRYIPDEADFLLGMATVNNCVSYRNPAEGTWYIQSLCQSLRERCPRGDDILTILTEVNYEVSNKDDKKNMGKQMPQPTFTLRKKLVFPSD
Sequence of UniProt P26358 (whole entry, looked up): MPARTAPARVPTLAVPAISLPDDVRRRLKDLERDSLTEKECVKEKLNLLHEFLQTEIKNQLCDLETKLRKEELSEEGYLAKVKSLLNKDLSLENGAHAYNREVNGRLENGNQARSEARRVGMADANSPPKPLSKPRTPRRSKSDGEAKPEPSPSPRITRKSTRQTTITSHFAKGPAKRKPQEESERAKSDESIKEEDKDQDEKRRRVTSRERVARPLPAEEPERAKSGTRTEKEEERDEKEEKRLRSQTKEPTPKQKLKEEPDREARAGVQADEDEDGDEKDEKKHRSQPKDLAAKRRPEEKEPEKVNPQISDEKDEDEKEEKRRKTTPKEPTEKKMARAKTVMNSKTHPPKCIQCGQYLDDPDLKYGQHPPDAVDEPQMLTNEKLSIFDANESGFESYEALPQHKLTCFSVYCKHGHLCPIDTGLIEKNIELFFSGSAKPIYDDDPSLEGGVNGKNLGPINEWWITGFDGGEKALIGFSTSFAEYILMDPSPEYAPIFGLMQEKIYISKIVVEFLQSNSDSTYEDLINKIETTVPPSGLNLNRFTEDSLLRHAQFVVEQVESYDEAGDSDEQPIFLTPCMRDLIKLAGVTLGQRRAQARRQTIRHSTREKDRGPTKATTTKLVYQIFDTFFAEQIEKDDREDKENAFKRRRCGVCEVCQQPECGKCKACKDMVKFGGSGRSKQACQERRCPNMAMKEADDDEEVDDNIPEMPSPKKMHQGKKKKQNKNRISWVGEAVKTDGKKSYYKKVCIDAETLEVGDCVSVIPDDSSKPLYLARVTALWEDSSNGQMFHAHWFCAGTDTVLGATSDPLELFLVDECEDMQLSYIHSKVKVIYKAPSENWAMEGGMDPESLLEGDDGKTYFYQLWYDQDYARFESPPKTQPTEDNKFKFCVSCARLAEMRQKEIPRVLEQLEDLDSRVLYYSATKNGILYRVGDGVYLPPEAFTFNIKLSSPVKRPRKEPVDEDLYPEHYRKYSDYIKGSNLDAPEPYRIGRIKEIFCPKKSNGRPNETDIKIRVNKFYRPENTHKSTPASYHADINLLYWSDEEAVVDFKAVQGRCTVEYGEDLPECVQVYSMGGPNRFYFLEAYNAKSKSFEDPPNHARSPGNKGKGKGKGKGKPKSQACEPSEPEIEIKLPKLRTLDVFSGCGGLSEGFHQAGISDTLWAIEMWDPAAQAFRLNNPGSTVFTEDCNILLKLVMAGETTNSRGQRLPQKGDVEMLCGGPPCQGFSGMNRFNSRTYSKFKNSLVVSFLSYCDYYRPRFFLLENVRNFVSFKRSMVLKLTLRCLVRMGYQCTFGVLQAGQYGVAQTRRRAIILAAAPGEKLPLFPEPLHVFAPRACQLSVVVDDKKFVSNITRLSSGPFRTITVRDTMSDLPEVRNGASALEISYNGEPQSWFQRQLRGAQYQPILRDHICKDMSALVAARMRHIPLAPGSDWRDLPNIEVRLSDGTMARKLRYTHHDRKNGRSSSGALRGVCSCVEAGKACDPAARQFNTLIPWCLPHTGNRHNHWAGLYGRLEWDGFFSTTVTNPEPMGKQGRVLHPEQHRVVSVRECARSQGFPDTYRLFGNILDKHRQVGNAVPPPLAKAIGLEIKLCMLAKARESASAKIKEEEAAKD
Sequence of UniProt P06730 (whole entry, looked up): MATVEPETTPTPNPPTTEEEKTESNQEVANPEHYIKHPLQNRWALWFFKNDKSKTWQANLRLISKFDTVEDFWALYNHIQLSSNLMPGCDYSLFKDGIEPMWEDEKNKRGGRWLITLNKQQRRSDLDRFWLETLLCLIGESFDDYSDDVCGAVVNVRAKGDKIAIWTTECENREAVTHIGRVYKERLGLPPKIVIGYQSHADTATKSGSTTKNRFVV
Sequence of UniProt P18669 (whole entry, looked up): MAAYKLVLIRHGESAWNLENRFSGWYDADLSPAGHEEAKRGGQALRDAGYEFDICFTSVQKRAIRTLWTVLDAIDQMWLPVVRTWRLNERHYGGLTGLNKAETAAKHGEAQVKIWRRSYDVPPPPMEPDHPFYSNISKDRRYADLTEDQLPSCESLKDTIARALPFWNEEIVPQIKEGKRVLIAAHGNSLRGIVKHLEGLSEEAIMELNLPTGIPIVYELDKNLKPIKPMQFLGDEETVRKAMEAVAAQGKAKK

For `Cc1ccccc1-c1noc(CNS(=O)(=O)c2ccccc2)n1`, the IC50 was 15 µM (Trypanothione synthetase; enzyme activity, inhibitor).
For `CCOC(=O)N1CCN(Cc2nc3c(c(=O)n(C)c(=O)n3C)n2CCC(C)C)CC1`, the IC50 was > 57 µM (ALDH1B1 (Homo sapiens, UniProt P30837)).
For `CC(C)(C)C(=O)OCOP(=O)(CCc1cccc(Cn2c[n+](Cc3cc4cc(Cl)ccc4o3)c3c(=O)[nH]c(N)nc32)c1)OCOC(=O)C(C)(C)C`, the IC50 was 14 to 36 µM (EIF4E (Homo sapiens, UniProt P06730); human cells; 6 h).
For `CCCc1nc2cc(C(=O)N3CCC4(CC3)CC(=O)c3cc5c(cc3O4)OC(C)(C)CC5)cc(C)c2[nH]1`, the IC50 was 0.141 µM (ACACB (Homo sapiens, UniProt O00763); enzyme activity, inhibitor, ADP detection).
`Cc1ccccc1-c1cc(N2CCCCC2)ccc1N(C)C(=O)C(C)(C)c1cc(C(F)(F)F)cc(C(F)(F)F)c1` gave an IC50 of 0.603 µM (TACR1 (Homo sapiens, UniProt P25103); nuclear ERK activity, antagonist, FRET biosensor; HEK293T; 30 to 90 min preincubation, added: substance P 10 nM).
With `CN1C(=O)/C=C/C(=O)N[C@H](C(=O)O)CCCNC(=O)[C@H](Cc2ccc([N+](=O)[O-])cc2)NC(=O)[C@H](Cc2ccc(F)cc2)NC(=O)[C@@H]1CC1CCCCC1` the IC50 was 0.57 ± 0.02 µM (Proto-oncogene tyrosine-protein kinase Src, SH3-SH2-kinase domain (SRC, Gallus gallus, UniProt P00523); enzyme activity, inhibitor, Z'-LYTE FRET; Src residues 83-533, added: 50 µM ATP).
`NS(=O)(=O)c1ccc(N2N=C(C(F)(F)F)CC2c2ccc(F)cc2F)cc1` (stereo not shown) gave an IC50 of 11.7 µM (Cyclooxygenase-2 (Canis lupus familiaris, UniProt Q8SPQ9); PGE2 formation, inhibitor; dog whole blood; 24 h, 37 °C, added: LPS).
`COC(=O)C[C@H](NC(=O)[C@H](C)NC(=O)[C@@H](NC(=O)OCc1ccccc1)C(C)C)C(=O)CF` gave an IC50 of 0.002 µM (Caspase-8 (CASP8, Homo sapiens, UniProt Q14790); enzyme activity, inhibitor, fluorescence).
The IC50 of `COP(=O)(OC)OC[C@H]1OC(O)(COP(=O)(OC)OC)[C@@H](O)[C@@H]1O` (stereo partly shown) is reported as 1520 µM (Phosphoglycerate mutase 1 (Homo sapiens, UniProt P18669); enzyme activity, inhibitor).
`O=C1c2ccccc2OC(c2ccccc2)C1(Cl)[N+](=O)[O-]` (stereo not shown) has an IC50 of 44.5 µM (DNMT1 (Homo sapiens, UniProt P26358); enzyme activity, inhibitor, radiometric).
With `O=c1c2cc3ccccc3cc2[nH]c(=S)n1Cc1ccccc1` the IC50 was 36.8 µM (Genome polyprotein, protease (Hepatitis C virus genotype 1b, UniProt O92972); enzyme activity, inhibitor, FRET).
`O=C(Cn1nc(C(F)(F)F)c2c1CCCC2)NCCc1ccccc1` has an IC50 of 5.6 µM (Trypanothione synthetase; enzyme activity, inhibitor).
With `CC(C)NCc1ccc(C[C@@H]2NC(=O)[C@@H](Cc3c[nH]c4ccccc34)NC(=O)[C@@H]3CCC(=O)NCCCCCC[C@H](NC(=O)[C@H](Cc4ccc(O)c(I)c4)NC(=O)[C@H]([C@@H](C)O)NC2=O)C(=O)N[C@@H](CO)C(=O)N[C@H](C(=O)O)CSSC[C@H](N)C(=O)N[C@@H](CCCCN)C(=O)N[C@@H](Cc2ccccc2)C(=O)N3)cc1` the IC50 was > 1 µM (SSTR5 (Homo sapiens, UniProt P35346); ligand displacement, radioligand; cell membranes).

Repeated from above:
With `O=c1c2cc3ccccc3cc2[nH]c(=S)n1Cc1ccccc1` the IC50 was 36.8 µM (Genome polyprotein, protease (Hepatitis C virus genotype 1b, UniProt O92972); enzyme activity, inhibitor, FRET).
